Earlier results as cited in several papers.
Protocols differ between the studies behind these lines. ± gives the spread as reported.
Metallo-beta-lactamase type 2: Metallo-beta-lactamase type 2 (Serratia marcescens, UniProt P52699)
Sequence of UniProt P52699 (whole entry, looked up): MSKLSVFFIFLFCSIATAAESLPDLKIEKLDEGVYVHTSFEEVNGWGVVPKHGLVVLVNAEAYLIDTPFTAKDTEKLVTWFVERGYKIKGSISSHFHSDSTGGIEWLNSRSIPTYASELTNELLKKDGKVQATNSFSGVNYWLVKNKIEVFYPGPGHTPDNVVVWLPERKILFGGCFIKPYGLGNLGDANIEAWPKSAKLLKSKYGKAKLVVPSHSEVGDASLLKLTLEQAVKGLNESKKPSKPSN
Sequence of UniProt Q86U86 (whole entry, looked up): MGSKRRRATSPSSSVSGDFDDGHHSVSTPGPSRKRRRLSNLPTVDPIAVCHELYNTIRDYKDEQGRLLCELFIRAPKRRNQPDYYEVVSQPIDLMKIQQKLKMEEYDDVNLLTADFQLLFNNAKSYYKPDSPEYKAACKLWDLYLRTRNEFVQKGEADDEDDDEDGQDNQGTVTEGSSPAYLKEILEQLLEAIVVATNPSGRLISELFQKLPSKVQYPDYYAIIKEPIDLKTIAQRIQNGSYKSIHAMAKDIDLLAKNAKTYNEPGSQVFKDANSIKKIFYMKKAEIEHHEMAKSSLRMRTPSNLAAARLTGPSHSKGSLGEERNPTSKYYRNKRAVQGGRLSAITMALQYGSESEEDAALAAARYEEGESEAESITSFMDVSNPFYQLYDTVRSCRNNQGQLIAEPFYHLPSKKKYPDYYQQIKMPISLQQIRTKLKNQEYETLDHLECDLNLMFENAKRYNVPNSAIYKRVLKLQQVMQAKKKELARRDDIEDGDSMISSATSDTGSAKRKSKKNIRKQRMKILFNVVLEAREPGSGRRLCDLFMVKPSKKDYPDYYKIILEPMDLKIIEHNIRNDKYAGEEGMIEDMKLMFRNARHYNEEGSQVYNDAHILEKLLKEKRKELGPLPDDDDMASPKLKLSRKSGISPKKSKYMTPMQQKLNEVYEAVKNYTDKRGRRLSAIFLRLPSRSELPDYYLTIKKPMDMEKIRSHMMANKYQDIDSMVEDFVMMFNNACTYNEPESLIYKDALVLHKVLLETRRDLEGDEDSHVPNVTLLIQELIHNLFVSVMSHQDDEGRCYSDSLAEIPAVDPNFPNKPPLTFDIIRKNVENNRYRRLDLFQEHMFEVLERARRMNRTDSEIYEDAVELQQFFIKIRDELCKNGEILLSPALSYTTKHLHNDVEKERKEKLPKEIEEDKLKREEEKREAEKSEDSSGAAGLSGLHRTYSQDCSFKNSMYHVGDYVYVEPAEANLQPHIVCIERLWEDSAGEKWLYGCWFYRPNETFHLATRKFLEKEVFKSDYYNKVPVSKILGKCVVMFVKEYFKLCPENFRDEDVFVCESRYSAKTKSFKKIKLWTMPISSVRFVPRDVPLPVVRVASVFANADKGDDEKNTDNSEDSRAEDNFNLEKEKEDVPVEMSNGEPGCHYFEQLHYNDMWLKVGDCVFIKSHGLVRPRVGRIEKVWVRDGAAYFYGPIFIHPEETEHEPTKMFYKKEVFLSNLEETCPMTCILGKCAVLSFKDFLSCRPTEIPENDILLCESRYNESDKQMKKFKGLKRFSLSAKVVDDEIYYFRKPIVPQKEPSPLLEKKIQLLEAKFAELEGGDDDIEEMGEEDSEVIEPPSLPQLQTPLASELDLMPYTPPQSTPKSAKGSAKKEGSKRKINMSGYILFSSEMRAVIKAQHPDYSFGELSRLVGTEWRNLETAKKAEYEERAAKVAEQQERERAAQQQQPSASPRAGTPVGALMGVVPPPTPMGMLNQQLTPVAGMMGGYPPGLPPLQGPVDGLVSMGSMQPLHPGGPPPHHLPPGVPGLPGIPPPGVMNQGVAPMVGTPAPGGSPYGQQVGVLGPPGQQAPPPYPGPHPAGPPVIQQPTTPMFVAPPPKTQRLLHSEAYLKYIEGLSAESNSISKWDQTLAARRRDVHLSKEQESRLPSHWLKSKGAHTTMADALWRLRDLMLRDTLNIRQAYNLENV
Sequence of UniProt P26769 (whole entry, looked up): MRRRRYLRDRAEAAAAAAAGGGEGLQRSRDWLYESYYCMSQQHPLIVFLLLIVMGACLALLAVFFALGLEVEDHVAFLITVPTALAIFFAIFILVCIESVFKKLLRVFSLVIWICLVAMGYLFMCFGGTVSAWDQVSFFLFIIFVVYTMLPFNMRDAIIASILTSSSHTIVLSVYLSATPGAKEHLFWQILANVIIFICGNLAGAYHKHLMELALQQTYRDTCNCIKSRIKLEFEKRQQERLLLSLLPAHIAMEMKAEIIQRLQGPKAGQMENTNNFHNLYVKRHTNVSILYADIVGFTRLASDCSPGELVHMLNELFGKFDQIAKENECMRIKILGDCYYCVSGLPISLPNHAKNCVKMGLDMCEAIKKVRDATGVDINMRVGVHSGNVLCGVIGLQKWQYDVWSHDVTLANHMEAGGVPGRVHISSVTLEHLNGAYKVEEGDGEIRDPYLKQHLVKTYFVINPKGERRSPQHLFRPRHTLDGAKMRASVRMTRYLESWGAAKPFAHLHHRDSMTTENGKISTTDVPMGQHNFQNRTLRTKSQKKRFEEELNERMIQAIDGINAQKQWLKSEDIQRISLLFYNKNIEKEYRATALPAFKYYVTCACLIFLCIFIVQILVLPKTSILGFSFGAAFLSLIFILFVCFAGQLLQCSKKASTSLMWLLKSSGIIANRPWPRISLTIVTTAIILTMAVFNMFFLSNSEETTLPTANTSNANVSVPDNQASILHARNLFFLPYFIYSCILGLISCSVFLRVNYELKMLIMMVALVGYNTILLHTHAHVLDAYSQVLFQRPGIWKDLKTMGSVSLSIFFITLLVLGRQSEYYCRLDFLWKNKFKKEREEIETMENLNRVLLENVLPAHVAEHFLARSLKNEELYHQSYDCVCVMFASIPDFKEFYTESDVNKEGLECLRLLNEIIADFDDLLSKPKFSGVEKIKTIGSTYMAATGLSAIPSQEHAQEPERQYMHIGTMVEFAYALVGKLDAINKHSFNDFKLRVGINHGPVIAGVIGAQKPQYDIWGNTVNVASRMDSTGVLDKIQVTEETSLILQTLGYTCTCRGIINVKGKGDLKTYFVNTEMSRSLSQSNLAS
Sequence of UniProt P35368 (whole entry, looked up): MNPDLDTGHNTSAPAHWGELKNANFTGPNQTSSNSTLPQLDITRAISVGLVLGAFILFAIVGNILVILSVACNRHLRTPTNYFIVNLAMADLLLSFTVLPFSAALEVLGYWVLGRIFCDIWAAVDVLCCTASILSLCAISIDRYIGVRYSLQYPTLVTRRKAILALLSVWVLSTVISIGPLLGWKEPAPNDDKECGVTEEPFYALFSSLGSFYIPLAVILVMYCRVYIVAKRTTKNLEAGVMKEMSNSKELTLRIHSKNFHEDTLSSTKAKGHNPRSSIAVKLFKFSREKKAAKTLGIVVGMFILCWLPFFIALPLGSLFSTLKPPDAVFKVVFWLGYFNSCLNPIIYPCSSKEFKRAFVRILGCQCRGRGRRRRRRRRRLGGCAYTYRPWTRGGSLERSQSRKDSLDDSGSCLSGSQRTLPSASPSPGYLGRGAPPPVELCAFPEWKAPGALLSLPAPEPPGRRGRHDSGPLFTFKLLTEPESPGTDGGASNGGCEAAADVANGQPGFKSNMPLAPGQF
Sequence of UniProt Q8IM16 (whole entry, looked up): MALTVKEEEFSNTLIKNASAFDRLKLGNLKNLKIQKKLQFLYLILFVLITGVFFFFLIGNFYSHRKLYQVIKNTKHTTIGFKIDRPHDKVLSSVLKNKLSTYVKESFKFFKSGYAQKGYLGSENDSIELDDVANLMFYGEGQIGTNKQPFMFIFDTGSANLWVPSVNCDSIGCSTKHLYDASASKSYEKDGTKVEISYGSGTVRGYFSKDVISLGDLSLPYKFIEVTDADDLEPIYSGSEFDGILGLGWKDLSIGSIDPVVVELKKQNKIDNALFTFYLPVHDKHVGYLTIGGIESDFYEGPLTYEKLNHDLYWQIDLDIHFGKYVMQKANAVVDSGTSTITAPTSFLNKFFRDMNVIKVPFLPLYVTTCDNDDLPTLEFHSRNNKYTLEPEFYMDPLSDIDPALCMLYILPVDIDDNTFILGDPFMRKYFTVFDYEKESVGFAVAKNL
Sequence of UniProt P41020 (whole entry, looked up): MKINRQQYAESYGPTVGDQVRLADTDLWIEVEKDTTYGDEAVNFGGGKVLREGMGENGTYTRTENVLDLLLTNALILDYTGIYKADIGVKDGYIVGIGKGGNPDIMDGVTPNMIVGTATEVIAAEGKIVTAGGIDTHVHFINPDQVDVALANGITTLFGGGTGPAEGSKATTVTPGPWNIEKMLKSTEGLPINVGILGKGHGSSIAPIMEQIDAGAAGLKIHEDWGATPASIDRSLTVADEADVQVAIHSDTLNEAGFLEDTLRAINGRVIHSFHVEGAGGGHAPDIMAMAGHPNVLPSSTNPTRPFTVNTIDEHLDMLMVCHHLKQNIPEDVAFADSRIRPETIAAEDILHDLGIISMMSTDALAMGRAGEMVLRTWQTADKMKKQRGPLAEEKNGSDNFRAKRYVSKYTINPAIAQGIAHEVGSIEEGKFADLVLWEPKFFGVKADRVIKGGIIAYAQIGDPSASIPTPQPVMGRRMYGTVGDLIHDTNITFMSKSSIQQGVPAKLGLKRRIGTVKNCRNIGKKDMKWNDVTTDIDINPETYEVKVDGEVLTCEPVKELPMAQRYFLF

SMILES = O=C(O)[C@H]1CS[C@@H]2CS[C@@H](CS)N12; target or system = Metallo-beta-lactamase type 2; assay = inhibitor; endpoint = Ki; result = 6000 ± 1000 nM
SMILES = CC(C)C[C@H](NC(=O)[C@@H]1CCCN1C(=O)[C@@H](N)CCCCN)C(=O)N[C@@H](CCC(=O)O)C(=O)N[C@H](CN[C@@H](Cc1ccc(O)cc1)C(=O)N[C@@H](CCCNC(=N)N)C(=O)N[C@H](C(=O)O)C(C)C)Cc1ccccc1; target or system = Plasmepsin IV (PMIV, Plasmodium falciparum 3D7, UniProt Q8IM16); endpoint = Ki; result = 0.5 ± 0.09 nM
SMILES = O=C(OCC[18F])C1C2CCC(CC1c1ccc(/C=C\I)cc1)N2 (stereo not drawn); target or system = SERT; assay = microPET; test system = anaesthetised, pons; endpoint = time to peak uptake; result = 115 min
SMILES = CC1(C)S[C@H]2CS[C@H](CS)N2[C@@H]1C(=O)O; target or system = Metallo-beta-lactamase type 2; assay = inhibitor; endpoint = Ki; result = 15000 ± 3000 nM
SMILES = COC(=O)C1C(OC(c2ccc(Cl)cc2)c2ccc(Cl)cc2)CC2CCC1N2C (single isomer, unassigned); target or system = muscarinic M1 receptor; endpoint = Ki; result = 382 ± 37 nM
SMILES = CP(=O)(O)CN; target or system = Urease subunit alpha (Sporosarcina pasteurii, UniProt P41020); assay = enzyme activity, inhibitor; endpoint = Ki; result = 340000 ± 22000 nM
SMILES = N=C(N)NCCC[C@@H]1NC(=O)[C@H](CCCCNC(=O)CCOCCOCCOCCOCCNC(=O)CC[C@H](NC(=O)CCOCCOCCOCCOCCNC(=O)c2ccc(NN)nc2)C(=O)NCCOCCOCCOCCOCCC(=O)NCCCC[C@@H]2NC(=O)[C@@H](Cc3ccccc3)NC(=O)[C@H](CC(=O)O)NC(=O)CNC(=O)[C@H](CCCNC(=N)N)NC2=O)NC(=O)[C@@H](Cc2ccccc2)NC(=O)[C@H](CC(=O)O)NC(=O)CNC1=O [technetium-99m labelled]; test system = athymic nude mouse, U-87 MG xenograft, tumour; conditions = dose not given, 120 min; endpoint = tumour uptake; result = 9.74 ± 3.22 %ID/g
SMILES = CC(O)CN1CCN(CCSC(c2ccc(F)cc2)c2ccc(F)cc2)CC1 (stereo not drawn); target or system = Sodium-dependent serotonin transporter (Slc6a4, Rattus norvegicus, UniProt P31652); assay = binding; test system = rat brain membranes; endpoint = Ki; result = 213 ± 13.2 nM
SMILES = CN[C@H](CC(C)C)C(=O)N[C@H]1C(=O)N[C@@H](CC(N)=O)C(=O)N[C@H]2C(=O)N[C@H]3C(=O)N[C@H](C(=O)N[C@H](C(=O)O)c4cc(O)cc(O)c4-c4cc3ccc4O)[C@H](O)c3ccc(c(Cl)c3)Oc3cc2cc(c3O[C@@H]2O[C@H](CO)[C@@H](O)[C@H](O)[C@H]2O[C@H]2C[C@](C)(NCc3ccc(-c4ccc(Cl)cc4)cc3)[C@H](O)[C@H](C)O2)Oc2ccc(cc2Cl)[C@H]1O; test system = mouse, plasma; conditions = intravenous, 10 mg/kg; endpoint = half-life; result = 12 h
SMILES = O=C(NC1CCN(CCc2c[nH]c3ccccc23)CC1)c1ccccc1; target or system = Alpha-1B adrenergic receptor (ADRA1B, Homo sapiens, UniProt P35368); assay = binding; endpoint = Ki; result = 226 nM
SMILES = CC1=C(C)C(=O)OC(C(C)(O)C2(O)CCC3(O)C4CC5OC56C(O)C=CC(=O)C6(C)C4CCC32C)C1 (stereo not drawn); target or system = SK-BR-3; assay = cell growth; endpoint = IC50; result = 1700 nM
SMILES = CCCCCn1cc(C(=O)c2ccc3c(c2)CC(C)(C)C3)c2ccccc21; target or system = cannabinoid receptor CB2; assay = binding; endpoint = Ki; result = 4.9 ± 0.2 nM
SMILES = Nc1ccccc1C(=O)O[C@H]1[C@@H](O)[C@H](n2cnc3c(=O)[nH]cnc32)O[C@@H]1COP(=O)(O)O; target or system = Adenylate cyclase type 2 (Adcy2, Rattus norvegicus, UniProt P26769); assay = enzyme activity, inhibitor; test system = Sf9 membranes; conditions = added: 5 mM MnCl2 and 100 µM forskolin; endpoint = Ki; result = 7500 ± 1400 nM
SMILES = CN(C[C@H](O)[C@@H](O)[C@H](O)[C@H](O)CO)C(=O)c1ccc(CN(Cc2ccccn2)Cc2ccccn2)nc1; target or system = Metallo-beta-lactamase VIM-2 (VIM-2, Escherichia coli, UniProt Q5U7L7); endpoint = Ki; result = 24000 nM
SMILES = CCCC[C@@H](C(=O)N[C@@H](CC(=O)O)C(=O)N[C@@H](Cc1ccccc1)C(N)=O)N(C)C(=O)[C@@H](Cc1c[nH]c2ccccc12)NC(=O)CNC(=O)[C@@H](Cc1ccccc1)NC(=O)[C@@H](N)Cc1ccc(O)cc1; target or system = CCK1 receptor; assay = binding; endpoint = Ki; result = 1100 nM
SMILES = O=C1N[C@@H](Cc2ccccc2)C(=O)N2CCC[C@@H]2C(=O)N[C@@H](Cc2ccccc2)C(=O)N[C@H]1Cc1c[nH]c2ccccc12; target or system = DOR opioid receptor; assay = binding; endpoint = Ki; result = 4150 ± 3020 nM
SMILES = N[C@@H](Cc1ccccc1)P(=O)(O)O; target or system = phenylalanine ammonia-lyase (maize); endpoint = Ki; result = 1500 nM
SMILES = CC1=C(C)C(=O)OC(C(C)(O)C2(O)CCC3(O)C4CC5OC56CC=CC(=O)C6(C)C4CCC32C)C1 (stereo not drawn); target or system = T47D; assay = cell growth; endpoint = IC50; result = 160 nM
SMILES = O=C(C=CN1C2CCC1c1ncnc(NC3CC3)c1C2)c1ccccc1O (stereo not drawn); target or system = Protein polybromo-1, BD2 (PBRM1, Homo sapiens, UniProt Q86U86); assay = binding, isothermal titration calorimetry; endpoint = Kd; result = 190 nM
SMILES = N/C(=N\Cc1ccccc1)C(/N=N/c1ccccc1)C(=O)NCc1ccccc1 (stereo not drawn); target or system = cannabinoid receptor CB2; endpoint = Ki; result = 37 nM
SMILES = CSC[C@H]1CN(Cc2c[nH]c3c(N)ncnc23)C[C@@H]1O; target or system = Helicobacter pylori MTA/SAH nucleosidase; assay = inhibitor; endpoint = Ki; result = 0.571 nM
